# Experimental data of several laboratories.
# Each numbered part is a random draw from the data of one study; scales do not carry over between parts. Substitutions count along the parent as printed.

# Block 1 — technique: aptamer microarray, sandwich; molecule type: DNA with 2'F-ANA; medium: in vitro; tested at: 200 nM; with: Cy3 exosite-II aptamer, 400 nM; direction: higher = stronger binding; oligonucleotide: GGTTGGTGTGGTTGG
# Target: Prothrombin, mature alpha-thrombin (F2, Homo sapiens, UniProt P00734)
# Notes: whole 15-mer aptamer, many near background
Modification,mean fluorescence intensity
2'F-ANA at 1 2 4 11 13 14,59.5 a.u.
2'F-ANA at 1 6 8 12 15,404 a.u.
2'F-ANA at 6 7 10 11 12 14 15,107 a.u.
2'F-ANA at 4 6 9 12 13 15,288 a.u.
2'F-ANA at 3 4 5 8 9 10 12 13 14,81.4 a.u.
2'F-ANA at 2 3 4 5 6 7 9 11 15,63.5 a.u.
2'F-ANA at 1 3 7 10 11 13 14,81 a.u.
2'F-ANA at 2 3 4 5 10 15,85.4 a.u.
2'F-ANA at 5 8 15,110 a.u.
2'F-ANA at 1 2 3 5 6 9 14,63.8 a.u.
2'F-ANA at 2 3 4 6 8 10 11 12 14 15,147 a.u.
2'F-ANA at 1 5 7 11,49.6 a.u.
2'F-ANA at 1 4 8 9 12,348 a.u.
2'F-ANA at 1 2 5 6 7 8 9 10 11 12 13 14,64.4 a.u.
2'F-ANA at 2 4 5 7 8 10 11 12 13 14,45.4 a.u.
2'F-ANA at 1 2 6 11 13 14,94.1 a.u.
2'F-ANA at 4 5 6 15,62.8 a.u.
2'F-ANA at 2 3 4 7 12,1210 a.u.
2'F-ANA at 1 2 3 4 6 7 8 12 14,88 a.u.
2'F-ANA at 2 3 5 10 12 14 15,49.7 a.u.
2'F-ANA at 1 6 7 10 11 13 14 15,54.1 a.u.
2'F-ANA at 2 4 5 7 10 13 14 15,41.9 a.u.
2'F-ANA at 3 4 6 7 10,322 a.u.

# Block 2 — technique: protein-binding microarray; molecule type: double-stranded DNA, one strand shown; medium: in vitro; tested at: 940 nM top; notes: 60-bp whole probe; with: salmon DNA 0.4 mg/ml; baseline: random background probes; direction: higher = stronger binding; shared flanks, not repeated: GCCTAGCAC … GTCTTGATTCGCTTGACGCTGCTG
# Target: Interferon regulatory factor 5, full length, phosphomimetic (IRF5, Homo sapiens, UniProt Q13568-2, residues 1-514, S451D/S453D/S456D/S462D)
Oligonucleotide,fitted relative affinity
TTAGGTCTCGGGATCGGTTAGTGCTAG,1.57 z-score
TCAATTATTGCTTCCTCACTGTGCTAG,0.523 z-score
TCATTTCAGTTTCTCTTACTGTGCTAG,3.93 z-score
GACGGTCTGGACTATCGGGACGTGCTA,-0.442 z-score
TCACTCACCTAGTTTCATACTGTGCTA,2.22 z-score
GACGATTTCAGAGTGGAGACGTGCTAG,-0.443 z-score
TTAGCTTTCGGTTTCGGTTAGTGCTAG,11.6 z-score
TTAGATGTCAGTCTCGATTAGTGCTAG,2.65 z-score
GACGGACTGAACTATCGGGACGTGCTA,-0.652 z-score
GAGGGTTTCGACTTTCGGGACGTGCTA,5.93 z-score
GACGGTCTCGGTATCGGGAAGTGCTAG,5.03 z-score
GACGATATCAATTTCGAGACGTGCTAG,0.198 z-score
TGAGGTCTCCTTTTCCTTTAGTGCTAG,0.394 z-score
TTTCCTTTACATTCCCCATTGTGCTAG,3.01 z-score
TTAGATCTCATACTGGATTAGTGCTAG,0.348 z-score
TCAACTCTGAACCTTCAGACTGTGCTA,-0.305 z-score
GACGAACTGAATATCGAGACGTGCTAG,-0.273 z-score
TGAGGTTTTCTAATGTTTTTGTGCTAG,0.644 z-score
TCATTTTTCTTTTATTAACTGTGCTAG,1.53 z-score
GACGGTCTCCTTCTCTTGACGTGCTAG,0.653 z-score
GACGATCTTAGACTGGAGACGTGCTAG,-0.748 z-score

# Block 3 — technique: DHFR PCA, deep sequencing; medium: yeast; with: (+)-ABA 2500 µM; baseline: wild-type fitted maximum; direction: higher = stronger binding
# Target: ABI1, truncated, D143A, DHFR fusion (Arabidopsis thaliana)
# Notes: methotrexate growth selection, single substitutions
# Starting sequence: PYL1, truncated, DHFR fusion (Arabidopsis thaliana); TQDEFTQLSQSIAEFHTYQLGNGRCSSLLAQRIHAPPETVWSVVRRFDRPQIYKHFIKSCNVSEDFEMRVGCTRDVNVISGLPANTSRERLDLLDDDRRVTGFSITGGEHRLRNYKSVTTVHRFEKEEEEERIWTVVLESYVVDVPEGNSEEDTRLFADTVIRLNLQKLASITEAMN; partner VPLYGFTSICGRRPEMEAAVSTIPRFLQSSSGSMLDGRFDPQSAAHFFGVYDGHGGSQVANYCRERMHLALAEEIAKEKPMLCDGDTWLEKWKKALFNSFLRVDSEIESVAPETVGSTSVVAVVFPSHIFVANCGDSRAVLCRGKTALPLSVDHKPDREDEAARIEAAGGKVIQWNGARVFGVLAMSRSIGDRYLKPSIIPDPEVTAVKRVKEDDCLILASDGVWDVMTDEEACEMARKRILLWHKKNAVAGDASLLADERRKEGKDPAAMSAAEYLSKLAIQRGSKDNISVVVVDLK
Substitution,relative binding score
M176V,96.8%
L29G,56.6%
D65A,94.8%
E64V,92.9%
R24S,99.9%
K168T,96.4%
R123M,103%
T106I,101%
Q51H,94.1%
D48V,62.1%
H110I,15.3%
L138V,94%
T101F,104%
L94T,87.9%
S59L,89.9%
E14H,89.7%
A84R,4.91%
E4C,99.4%
E129S,103%
R74H,19.7%
Q10I,98.1%

# Block 4 — target: CCNA1, cyclin fold, Cln2 fusion (human); technique: yeast growth competition, sequencing; medium: yeast; notes: weak parent motif; baseline: not given; direction: higher = stronger binding
# Starting sequence: DBF4 docking peptide (human); DDIVSKLVFDFVE; partner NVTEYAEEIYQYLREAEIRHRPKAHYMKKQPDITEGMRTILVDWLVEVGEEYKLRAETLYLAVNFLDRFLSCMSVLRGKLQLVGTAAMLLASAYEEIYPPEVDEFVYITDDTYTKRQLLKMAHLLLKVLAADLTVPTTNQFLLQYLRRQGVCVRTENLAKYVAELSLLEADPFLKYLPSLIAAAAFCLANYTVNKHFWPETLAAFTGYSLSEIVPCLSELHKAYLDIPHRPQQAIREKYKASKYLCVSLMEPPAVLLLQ
Substitution,normalised enrichment score
V12A,-0.533
K6A,-0.276
D10A,-0.601
I3A,-0.295
F11A,-0.504
V4A,-0.379
E13A,-0.316

# Block 5 — technique: universal PBM; molecule type: double-stranded DNA, one strand shown; medium: in vitro; tested at: not given; direction: higher = stronger binding
# Target: Sal-like protein 4, full length isoform B (SALL4, Homo sapiens, UniProt Q9UJQ4-2, residues 1-616)
# Notes: 8-mer, flanks averaged, mean of replicates
# Residues (chain): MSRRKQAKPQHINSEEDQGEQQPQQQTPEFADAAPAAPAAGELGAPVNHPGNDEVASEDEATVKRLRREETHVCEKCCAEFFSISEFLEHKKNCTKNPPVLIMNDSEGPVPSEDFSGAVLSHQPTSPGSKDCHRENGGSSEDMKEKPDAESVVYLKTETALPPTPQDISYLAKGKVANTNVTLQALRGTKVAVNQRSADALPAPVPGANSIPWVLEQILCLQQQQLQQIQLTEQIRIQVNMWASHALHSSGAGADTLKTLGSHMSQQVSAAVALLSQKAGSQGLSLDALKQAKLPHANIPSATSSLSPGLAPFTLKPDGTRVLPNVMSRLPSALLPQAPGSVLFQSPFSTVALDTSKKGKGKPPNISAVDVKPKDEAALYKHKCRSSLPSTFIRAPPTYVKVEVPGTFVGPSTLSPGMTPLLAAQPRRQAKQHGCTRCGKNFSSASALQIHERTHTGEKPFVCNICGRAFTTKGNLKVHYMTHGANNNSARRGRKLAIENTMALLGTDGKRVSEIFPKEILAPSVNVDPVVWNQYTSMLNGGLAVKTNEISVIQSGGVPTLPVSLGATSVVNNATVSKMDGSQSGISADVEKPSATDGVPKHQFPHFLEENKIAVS
Oligonucleotide,E-score
CGAAACGA,-0.0598
AGGATACT,0.0386
AGCGCTCC,-0.181
ACGTCAGG,-0.117
CGTTGGGC,-0.291
AATACACG,0.14
CAATAAGC,0.123
CTGCAATC,0.0112
CGCCCAAG,-0.25
GTTCAGAA,0.0493
TCGTACCA,-0.00344
ACAGCCGC,-0.347
ATTGCTCA,0.173
AGGTGTAG,0.0151
ATGCCACA,0.087
AAATAGTC,0.106
ATTGAATA,0.369
TAGGGAGA,-0.0193
GCGCTCAC,-0.251
CGTACACA,0.0648
AATAGGGT,0.246
GGGCCAAC,-0.181

# Block 6 — target: CREB5, bZIP domain (human); technique: DHFR protein complementation; medium: yeast; baseline: wild-type JUN-FOS pair; direction: higher = stronger binding
# Notes: single substitutions, most at no-binding floor
# Starting sequence: JUN, bZIP domain (human); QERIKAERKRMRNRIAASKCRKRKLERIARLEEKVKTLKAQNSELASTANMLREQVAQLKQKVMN; partner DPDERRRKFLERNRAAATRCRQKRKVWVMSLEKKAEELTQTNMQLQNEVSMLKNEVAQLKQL
Substitution,binding fitness
E44K,-0.343 natural log
S47A,-0.159 natural log
K39C,-0.52 natural log
K34T,-0.28 natural log
K39F,-0.694 natural log
K34E,-0.586 natural log
E33L,-0.391 natural log
E33P,-1.33 natural log
V56H,-1.06 natural log
A46Q,-0.245 natural log
A29Q,-0.29 natural log
S43C,-0.347 natural log
K34C,-0.483 natural log
E32M,-0.433 natural log
M51F,-0.261 natural log
T37L,-0.164 natural log
N42G,-0.893 natural log
N42Y,-0.877 natural log
E54W,-0.876 natural log
A46R,-0.302 natural log
N42C,-0.925 natural log

# Excerpt of the above (block 2):
Oligonucleotide,fitted relative affinity
TCATTTCAGTTTCTCTTACTGTGCTAG,3.93 z-score
GACGGTCTGGACTATCGGGACGTGCTA,-0.442 z-score
TCACTCACCTAGTTTCATACTGTGCTA,2.22 z-score
GACGATTTCAGAGTGGAGACGTGCTAG,-0.443 z-score
TTAGCTTTCGGTTTCGGTTAGTGCTAG,11.6 z-score
TTAGATGTCAGTCTCGATTAGTGCTAG,2.65 z-score
GACGGACTGAACTATCGGGACGTGCTA,-0.652 z-score
GAGGGTTTCGACTTTCGGGACGTGCTA,5.93 z-score
